Assay results from different studies.
Numbered parts are unrelated; each lists some results of a single study. Positions count from the first letter of the parent shown.

Study 1 — technique: competition protein-binding microarray; form: double-stranded DNA, one strand shown; matrix: in vitro; tested at: 2 µM; together with: Pho4 competitor, 0.05 µM; direction: higher = stronger binding; shared flanks, not repeated: … GTCTTGATTCGCTTGACGCTGCTG
Target: Centromere-binding protein 1, full length, His-tagged (CBF1, Saccharomyces cerevisiae, UniProt P17106, residues 1-351)
Chain of UniProt P17106 (whole entry, looked up): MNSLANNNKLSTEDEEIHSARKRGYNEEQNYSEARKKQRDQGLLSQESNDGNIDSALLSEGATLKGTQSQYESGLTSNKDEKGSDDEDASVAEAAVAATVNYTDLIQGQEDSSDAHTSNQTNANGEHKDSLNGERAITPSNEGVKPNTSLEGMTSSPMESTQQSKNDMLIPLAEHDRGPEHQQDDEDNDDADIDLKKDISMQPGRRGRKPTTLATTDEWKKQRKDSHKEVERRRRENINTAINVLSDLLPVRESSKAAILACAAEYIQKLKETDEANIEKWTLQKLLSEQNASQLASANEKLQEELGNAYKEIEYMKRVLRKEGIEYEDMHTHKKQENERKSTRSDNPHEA
Setting: whole 60-bp probe, lowest competitor level
Sequence | fluorescence intensity
AACTAAACCTCTTCGTGCGTGATGGAGTTGGAAACG | 85.1 a.u.
GTCTTGTCTCATTGCGAGGTGGGTGTCCCCACTTCA | 88.3 a.u.
GTCTTGTCTCATTGTCACTACACTTTCCCCACTTCA | 102 a.u.
GGTGGGGGACCTGTAGTCGTGCCGAGCGATCCGCTT | 82.4 a.u.
CGGGGTTAAGTTTGCCCAGTGGGTGGCTTGCAGCAG | 45 a.u.
TGCGCAACAACTTGATACGTGGGTGTATGTCTAGAA | 65.5 a.u.
AAATTACTAAGTTGCTACGTGGGTGACGCCGTATGA | 63.6 a.u.
GTCTTGTCTCATTGTATGGTGGGTGTCCCCACTTCA | 79 a.u.
CATACCCAACCTTGTCACAACACTTAAGATATTTGT | 102 a.u.
CGGGGTTAAGTTTTTCACGTGATTTGCTTGCAGCAG | 4000 a.u.
TGTCACTGGGTTTAGCACGGGTGTCATCAAGCTATG | 87.4 a.u.
CATAACAGTCTAGAGCGCGTGGGTAATACGGCTGTT | 80 a.u.
ATTCCAAACGTTACCCACGTTATCAACTACGATTTA | 121 a.u.
TTGTAATGAGTTGGGCACATGGCGCAGTTGGTAGCG | 120 a.u.
CTTCTGTAAATTTTTCACGTGCTATGACGCGCCCCG | 1350 a.u.
TAGCGTCCAAGGACGCCCGTGGCCGAGGGAGCACCA | 43.8 a.u.
AAATTACTAAGTTGAACAGTGGGTGACGCCGTATGA | 71.9 a.u.

Study 2 — technique: RNA Bind-n-Seq; form: RNA; matrix: in vitro; tested at: 365 nM; relative to: no-protein control; direction: higher = stronger binding
Target: RNA binding protein fox-1 homolog 2, RRM domain, GST-SBP tag (RBFOX2, Homo sapiens, UniProt O43251-10, residues 100-194)
Setting: natural RNA segment, single round, ends assumed
Shared flanks, not repeated: GGGAGUUCUACAGUCCGACGAUC … UGGAAUUCUCGGGUGCCAA
Target sequence (chain): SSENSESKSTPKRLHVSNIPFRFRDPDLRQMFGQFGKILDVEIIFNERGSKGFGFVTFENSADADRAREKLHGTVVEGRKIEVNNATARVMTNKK
Sequence | RBNS enrichment (R)
ACUCGGUUCACUUCAGACUACGUGAUUGGAAGUCAUUCCUCGGUUGCACUAGCCACACAAAAUGCUCAGUCACCAUCCCCCGGGCACCGAGGGUUAAGCUGGUUUAGCAG | 0.143
ACUUCCAAUGUGACUAAAAAGAGAAAAAAAAUCACUGUGUCACUUUAAAGAAAAAUCUUCUAAGGGAUUUGGAUUUUACUUUCUUUAGAAUGACAAGUGAAUCAUAUUGA | 0.691
AGUGGACACAUUAGUAAUGGUUAUGGGAGUAAUACAGAGAAAGAGGUGAGUGGAGACUCAGCCCAGCUGCUCUUGAGCUUGGAUAGUUAUACAUUUUGGUGACUUCUGAC | 0.337
GAUAUGAAGACCUCGUUCAACUUUGCAUAACACGUAGAGGUAAUAGCUAGGUGAUAGACAUUUUCAAAAAUUGCCUGACUGGCCAAGUUACAAGGAUGCCUCUCCACACU | 0.274
CUUUCCCAUGUACUCAGUUUAGCUCUCAAAGAAGGGGUGAAUCAUAAAGCCAGUGAAAAUUUCACCCUCUGAGGGAGUUCCCCAAUCUGAAGGGGAAGAGGGUGACCUCA | 0.512
CUCACAGCAGGCAGCAUAUGUUGAAAUAAGUUAUUACUGGUACACACCUGCAUUGCCUCACCAGUGUAUUUAUUUGUUAUUAAAUUGAUCUGACUUCUCAGCCUCAUUUG | 1.93
UCGCACCAUUGCACUUUAGAAAUAACACGGAGUGUUCCCAAGGGCCUCAGGUGGACUGCCACCCUGCCUUUAUCUCUGUAGGAUAAGAGGAGGAUGACUGGCCUCUGGCC | 0.506
GAAGAUUUAUUUAAUUUGAUAUGUUCUUGUACUGCAUUUUGAUCAGUUGAGCUUUUAAAAUAUUAUUUAUAGACAAUAGAAGUAUUUCUGAACAUAUCAAAUAUAAAUUU | 2.54
UCCUCCUCACUUAGCACCUAGGGGUGUCAGGGUCGGGAGUAGGACCUGUCCUGACCUCAGGGUUAUAUAUAGCCCUUCCCCACUCCCUCCUACGAGAGUUCUGGCAUAAA | 0.261
CUGGCGUUUGUAGAGAAAGUGGGACGCUGUUCUCUUCAUAUUUAAAUGCCAGCCAGGUGCUGGCUGUGGGCUUUCCCUCCUCAACACCCUUAUUUAGAAAGGAAACUGUG | 0.578
CUGCCCUACAAAAUGCUCUUCAUUGGUUGUCUCUGUGAGAGCACUGUCCCCACCCAACCUGUCACAACGGCCAGAACCAUACACCAGAGACACACUGGCAGGUUAGGCAG | 0.416
CCCAACCUACCACCCAAAAGAACCUUUUGGCCAGUUGUUAAAAGGACAGGAAUGAUUUUAUUCUGUAGUUGGAGCCCAAACUCAUUAAGGUACCCUUUAUGAGGCCAAGA | 0.323

Study 3 — technique: protein binding microarray; form: double-stranded DNA, one strand shown; matrix: in vitro; tested at: not given; relative to: not given; direction: higher = stronger binding
Target: Histone acetyltransferase KAT6A, winged helix 2, GST fusion (KAT6A, Homo sapiens, UniProt Q92794, residues 85-181)
Setting: 8-mer, flanks averaged, mean of 2 arrays, mostly near background
Target sequence (chain): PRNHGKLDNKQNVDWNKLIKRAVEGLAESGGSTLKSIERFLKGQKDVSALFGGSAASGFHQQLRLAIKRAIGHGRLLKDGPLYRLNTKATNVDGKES
Sequence | E-score
ATCCCATA | -0.0131
AACCCTGT | 0.0556
GCATAACC | -0.114
ACTCGCAG | 0.0864
AAGCAAGG | 0.109
AGAGCTAG | -0.0201
AGCATTGC | 0.0822
TTCATAAA | 0.0876
CCGGGAAC | 0.173
TAAAATTA | 0.169
AAGTTTTA | -0.0476
GCTGCTTA | 0.0281
ACGACACC | -0.0723
CCATTAAG | -0.0775
GTACACAA | 0.0214
CAGCGTCA | 0.0223
AGATGTCG | -0.0727

Study 4 — target: BATF2, bZIP domain (human); technique: DHFR protein complementation; matrix: yeast; relative to: wild-type JUN-FOS pair; direction: higher = stronger binding
Setting: single substitutions, most at no-binding floor
Parent: JUN, bZIP domain (human); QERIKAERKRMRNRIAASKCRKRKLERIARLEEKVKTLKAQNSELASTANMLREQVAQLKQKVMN; partner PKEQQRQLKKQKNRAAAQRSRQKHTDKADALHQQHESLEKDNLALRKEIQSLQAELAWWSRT
Change | binding fitness [natural log]
T48F | -0.286
I28C | -0.561
E54C | -0.814
N42Y | -1.14
A40F | -0.472
T37D | -0.17
E44P | -1.46
A29M | -0.765
T37I | -0.202
A49M | -0.648
A49C | -0.499
K36N | -0.231
L52T | -1.47
R53N | -1.36
L45Q | -1.25
Q58R | -0.407
K34Q | -0.309

Study 5 — technique: DHFR PCA, deep sequencing; matrix: yeast; together with: (+)-ABA 710 µM; relative to: wild-type fitted maximum; direction: higher = stronger binding
Target: ABI1, truncated, D143A, DHFR fusion (Arabidopsis thaliana)
Setting: methotrexate growth selection, single substitutions
Parent: PYL1, truncated, DHFR fusion (Arabidopsis thaliana); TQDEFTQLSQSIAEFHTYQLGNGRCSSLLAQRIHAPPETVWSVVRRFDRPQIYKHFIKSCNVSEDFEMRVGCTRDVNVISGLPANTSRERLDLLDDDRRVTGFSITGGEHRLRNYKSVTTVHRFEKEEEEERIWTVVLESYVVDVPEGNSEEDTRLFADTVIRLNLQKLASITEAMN
Change | relative binding score [%]
S150H | 84.8
S104F | 57.7
F56N | 22.2
E109G | 96.2
D95R | 82.2
K116H | 100
F157Y | 92.5
V121Y | -24.7
L20A | 102
F124T | 103
N61Y | 99.5
T17F | 88.3
K168G | 99.6
S150Y | 76
E4M | 109
V136I | 91.6

Study 6 — target: CCND2, cyclin fold, Cln2 fusion (human); technique: yeast growth competition, sequencing; matrix: yeast; setting: weak parent motif; relative to: not given; direction: higher = stronger binding
Parent: CCP110 docking peptide (human); EKVKRRLDLDIDG
Change | normalised enrichment score
R6A | 0.0899
G13A | 0.286
K4A | 0.188
E1A | 0.538
L9A | 0.000846
D10A | 0.588
D12A | 0.253
L9F | 0.784
R5K | -0.152
R5A L7A | 0.31

Some of these lines once more (study 6):
Change | normalised enrichment score
R6A | 0.0899
G13A | 0.286
K4A | 0.188
E1A | 0.538
L9A | 0.000846
D10A | 0.588
D12A | 0.253
L9F | 0.784
R5K | -0.152
R5A L7A | 0.31
